Experimental data gathered from unrelated publications.
Compare with care: the assays were run in different laboratories. Several values in a cell are separate wells, animals, samples, runs or records. Numbers after ± are the reported error.

With COc1cc2c3c(c4cc(OC)c(OC)c(OC)c4c2cc1OC)CC1CCCN1C3 (stereo not drawn) the CC50 was 83.8 ± 3.29 µM (swine cells; 24 (unit not given)).
For CC(C)C[C@H](NC(=O)[C@H](CCCCN)NC(=O)[C@H](CCC(=O)O)NC(=O)[C@H](C)NC(=O)[C@@H](NC(=O)[C@H](CCCCN)NC(=O)[C@H](CC(=O)O)NC(=O)[C@H](Cc1ccc(O)cc1)NC(=O)[C@H](Cc1ccccc1)NC(=O)[C@H](C)NC(=O)[C@H](CCCCN)NC(=O)[C@H](CC(C)C)NC(=O)[C@H](Cc1c[nH]c2ccccc12)NC(=O)[C@@H](N)CC(=O)O)C(C)C)C(=O)N[C@@H](CCCCN)C(=O)N[C@@H](CCC(=O)O)C(=O)N[C@@H](C)C(=O)N[C@@H](Cc1ccccc1)C(=O)N1CCC[C@H]1C(=O)N[C@@H](CC(=O)O)C(=O)N[C@@H](Cc1c[nH]c2ccccc12)C(=O)N[C@@H](C)C(=O)N[C@@H](CCCCN)C(=O)N[C@@H](C)C(=O)N[C@@H](C)C(=O)N[C@@H](Cc1ccc(O)cc1)C(=O)N[C@@H](CC(=O)O)C(=O)N[C@@H](CCCCN)C(=O)N[C@@H](C)C(=O)N[C@@H](C)C(=O)N[C@@H](CCC(=O)O)C(=O)N[C@@H](CCCCN)C(=O)N[C@@H](C)C(=O)N[C@@H](CCCCN)C(=O)N[C@@H](CCC(=O)O)C(=O)N[C@@H](C)C(=O)N[C@@H](C)C(=O)O, “volume of distribution at steady state” read 0.076 L/kg (cynomolgus monkey female, plasma; intravenous infusion, 25 mg/kg every other day, day 27).
With CC(C)C[C@@H](N)C(=O)NCC(=O)N[C@H](C)C(=O)N[C@H](CO)C(=O)N[C@H](Cc1c[nH]c2ccccc12)C(=O)N[C@H](Cc1c[nH]cn1)C(=O)N[C@H](CCCNC(=N)N)C(=O)N1CCC[C@@H]1C(=O)N[C@H](CC(=O)O)C(=O)N[C@H](CCCCN)C(=O)N[C@H](CS)C(=O)N[C@H](CS)C(=O)N[C@H](CC(C)C)C(=O)NCC(=O)N[C@H](Cc1ccc(O)cc1)C(=O)N[C@H](CCC(N)=O)C(=O)N[C@H](CCCCN)C(=O)N[C@H](CCCNC(=N)N)C(=O)N1CCC[C@@H]1C(=O)N[C@H](CC(C)C)C(=O)N1CCC[C@@H]1C(N)=O the accuracy was 102% (LC-MS/MS; rat plasma; 500 ng/mL, 12 h, 25 °C, room temperature before extraction; relative to: nominal).
CC[C@@H]1C[C@]1(NC(=O)[C@@H]1C[C@@]2(CN1C(=O)[C@@H](NC(=O)[C@@H](NC(=O)[C@@H]1CCCCN1C(C)C)C1CCCCC1)C(C)(C)C)C(C)(C)C21CCC1)C(=O)NS(=O)(=O)N1CCCC1 — result for “subjects with adverse event”: 0% (refers to: Nausea; healthy human; oral, 50 mg, added: ritonavir 100 mg).
With C[C@@H]1CC[C@H]2[C@@H](C)CO[C@@H]3O[C@@]4(C)CC[C@@H]1[C@]32OO4 the measured concentration was 56.1 ± 2.05 ng/mL (refers to: compound; rat, plasma; 50.0 ng/mL spiked, three freeze/thaw cycles).
CCCCCCCCCCCCC(=O)O.O=C1CCCC2C3CCCN4CCCC(CN12)C34 (stereo not drawn): “standard entropy of micellization” 83 J/(mol·K) (electrical conductivity; water; 293.15 K, critical micelle concentration).
With Cc1ccc(/C=C/C(=O)O)cc1-c1cc2c(cc1C)C(C)(C)CCC2(C)C the blood cholesterol was 66 ± 15.1 mg/dL (Sprague-Dawley rat, male; oral, 100 mg/kg, 9 h, sesame oil vehicle).
With CC1N=C(c2ccccc2F)c2cc(Br)ccc2-n2cnc(C(=O)OC3OC(CO)C(O)C(O)C3O)c21 (stereo not drawn) the cumulative excretion was 2.4 ± 0.2% (LC-MS/MS; Swiss Webster mouse, female, urine; intraperitoneal, 750 µg parent drug, 24 to 48 h).
CC1=CC(C)(C)N=C2C=CC(=O)C=C12: “dose with liver alterations” no less than 87.5 mg/kg/day (female Wistar Han rats, liver; oral, 2 days).
[11CH3]n1c(=O)n(CCCO)c(=O)c2c1nc(Oc1cccc(OC(F)(F)F)c1)n2Cc1ccc(Cl)cc1: “time to maximum SUV” 6 to 10 min (PET; cynomolgus monkey, male, whole brain).
For CC(=O)[CH](C(C)=O)[Pt-2]1([S+](C)C)[O]C(C)=CC(C)=[O+]1 (stereo not drawn), the MTD was 50 mg/kg (general toxicity; mouse; intravenous, single dose).
Under “time of peak uptake”, C[C@@H]1CCCN1CCc1cc2cc(C(=O)c3ccc([18F])cc3)ccc2o1 is recorded as roughly 47.5 min (rhesus monkey, frontal cortex; baseline).
The CL of O=c1cc(-c2ccccc2)oc2c(Br)c(O)c(O)c(O)c12 is reported as 515 ± 298 mL/h (C57BL/6 mouse, plasma; po, 150 mg/kg).
COc1cc(NC(=O)C(=O)c2c(C)n(Cc3ccc(Cl)cc3)c3ccc(C)cc23)ccn1 gave an AUC(0-inf) of 3660 ng·h/mL (female cynomolgus monkey, plasma; oral, 10 mg/kg).
With C/C=C/C=C/C/C=C/CCCCCCCc1cccc(O)c1O the tissue concentration was 43300 ± 3590 ng/g (female Kunming mice, tumour-bearing, tumor; intravenous, 10 mg/kg, 1 h).
With CC[C@H](C)[C@H](NC(=O)CNC(=O)[C@H](Cc1c[nH]cn1)NC(=O)[C@H](CC(C)C)NC(=O)CNC(=O)[C@H](CC(C)C)NC(=O)[C@H](CCCCN)NC(=O)[C@H](Cc1ccccc1)NC(=O)[C@H](CC(C)C)NC(=O)[C@H](CCCCN)NC(=O)CNC(=O)[C@H](Cc1c[nH]c2ccccc12)NC(=O)[C@H](Cc1ccccc1)NC(=O)CN)C(=O)NCC(=O)N[C@@H](CC(C)C)C(=O)N[C@@H](CC(C)C)C(=O)N[C@@H](Cc1c[nH]cn1)C(=O)N[C@@H](CC(C)C)C(=O)N[C@@H](Cc1c[nH]cn1)C(=O)N[C@@H](CC(C)C)C(N)=O the lethal concentration was 1 µM (mortality; zebrafish embryos, 4 hpf).
CCNc1cc2[o+]c3cc(NCC)c(C)cc3c(-c3ccccc3C(=O)OCCOCC[18F])c2cc1C: “tissue uptake ratio” 13.4 and 16.1 (rat; 120 min; relative to: heart over liver).
CC[C@H](C)C(=O)N1CCC(NC(=O)Nc2ccc(OC(F)(F)F)c(F)c2)CC1: “subjects with headache TEAE” 16.7% (healthy volunteers; oral, 2 mg single dose).
The terminal half-life of CC(C)C[C@@H](NC(=O)[C@@H](Cc1ccccc1)NC(=O)[C@H](N)Cc1ccccc1)C(=O)N[C@H](CCCCN)C(=O)N1CCC(N)(C(=O)O)CC1 is reported as 2 h (human, plasma; intravenous, 5 and 15 µg/kg).
The capacity factor of Cc1ccnc(-c2cc(C)ccn2)c1.O.[C-]#[O+].[C-]#[O+].[C-]#[O+].[Re+] is reported as 3.3 (RP-HPLC C18 column, refers to: aqua complex; MeCN:water 40:60, 0.1% TFA; isocratic elution).
For CC(C)(CCCC/C=C/CCCCCC(C)(C)C(=O)O)C(=O)O, the Vd was 0.29 L/kg (beagle dog, plasma; intravenous, 5 mg/kg).
The tissue uptake of O=C(c1ccc(F)cc1)C1CCN(C2Cc3c(cccc3OCC[18F])CC2O)CC1 (single isomer, unassigned; (-)) is reported as 0.382 ± 0.029 %ID/g (Sprague-Dawley rat, male, liver; intravenous, dose not given, 120 min).
CC[C@@H](C)[C@H](NC(=O)[C@H](C)NC(=O)[C@H](CCCCN)NC(=O)[C@H](CC(C)C)NC(=O)[C@H](C)NC(=O)[C@@H](NC(=O)[C@H](Cc1c[nH]cn1)NC(=O)[C@H](CC(C)C)NC(=O)[C@@H](NC(=O)[C@@H](NC(=O)[C@H](CCCCN)NC(=O)[C@H](CCCCN)NC(=O)[C@H](C)NC(=O)[C@H](CO)NC(=O)[C@H](CCCCN)NC(=O)[C@H](Cc1ccccc1)NC(=O)[C@@H](NC(=O)[C@H](CCCCN)NC(=O)[C@H](CC(C)C)NC(=O)[C@H](Cc1ccccc1)NC(=O)[C@H](CO)NC(=O)[C@H](CCCCN)NC(=O)[C@H](Cc1c[nH]c2ccccc12)NC(=O)[C@H](CCCCN)NC(C)=O)[C@@H](C)O)[C@@H](C)O)C(C)C)[C@@H](C)O)C(=O)N[C@@H](CO)C(=O)N[C@@H](CO)C(N)=O: “mean residue ellipticity” -3000 deg cm² dmol⁻¹ (circular dichroism at 222 nm; KCl phosphate buffer; 75 µM, pH 7.4, 65 °C).
With CCCCCCCCCCCCCCCC(=O)N[C@@H](CCC(=O)NCCCC[C@H](NC(=O)[C@H](CC(=O)O)NC(=O)[C@H](CO)NC(=O)[C@@H](NC(=O)[C@H](Cc1ccccc1)NC(=O)[C@@H](NC(=O)CNC(=O)[C@H](CCC(N)=O)NC(=O)[C@H](C)NC(=O)[C@@H](Cc1ccc(O)cc1)NC(C)=O)[C@@H](C)O)[C@@H](C)O)C(=O)N[C@@H](CO)C(=O)N[C@@H](CCCCN)C(=O)N[C@@H](Cc1ccc(O)cc1)C(=O)N[C@@H](CC(C)C)C(=O)N[C@@H](CC(=O)O)C(=O)N[C@@H](CCC(=O)O)C(=O)N[C@@H](CCCNC(=N)N)C(=O)N[C@@H](C)C(=O)N[C@@H](C)C(=O)N[C@@H](CCC(N)=O)C(=O)N[C@@H](CC(=O)O)C(=O)N[C@@H](Cc1ccccc1)C(=O)N[C@H](C(=O)N[C@@H](CCC(N)=O)C(=O)N[C@@H](Cc1c[nH]c2ccccc12)C(=O)N[C@@H](CC(C)C)C(=O)N[C@@H](CC(C)C)C(=O)N[C@@H](CCC(=O)O)C(=O)NCC(=O)NCC(=O)N1CCC[C@H]1C(=O)N[C@@H](CO)C(=O)N[C@@H](CO)C(=O)NCC(=O)N[C@@H](C)C(=O)N1CCC[C@H]1C(=O)N1CCC[C@H]1C(=O)N1CCC[C@H]1C(=O)N[C@@H](CO)C(N)=O)C(C)C)C(=O)O the half-life was roughly 6 h (male cynomolgus monkey, plasma; subcutaneous).
CC(C)[C@H](NC(=O)CNC(=O)[C@H](CCC(N)=O)NC(=O)[C@H](C)N)C(=O)O: “probably related adverse events” 0% (human; single dose, 30 mg/kg).
With CSCC[C@H](NC(=O)CNC(=O)[C@H](CCCCN)NC(=O)[C@H](CC(C)C)NC(=O)[C@@H]1CCCN1C(=O)[C@H](CO)NC(=O)[C@H](Cc1c[nH]cn1)NC(=O)[C@H](Cc1c[nH]c2ccccc12)NC(=O)[C@H](CCCNC(=N)N)NC(=O)[C@H](CC(C)C)NC(=O)[C@H](CCCNC(=N)N)NC(=O)[C@H](Cc1c[nH]c2ccccc12)NC(=O)[C@H](CS)NC(=O)CCCCCNC(=O)CN1CCN(CC(=O)O)CCN(CC(=O)O)CCN(CC(=O)O)CC1)C(=O)O [copper-64 labelled] the tumour uptake was 6.89 %ID/g (BALB/c nude mice, Huh-7 xenograft, tumour; intravenous, 1.85 MBq, 6 h).
O=C(N=P12CN3CN(CN(C3)C1)C2)c1ccccn1.[Cl][Au+][Cl].[O-][Cl+3]([O-])([O-])[O-] gave a decomposition time of 30 min (NMR; DMSO:water 50:50).
The tissue uptake of N=C(N)NCc1ccc(C(=O)NCCCC[C@H](NC(=O)N[C@@H](CCC(=O)O)C(=O)O)C(=O)O)cc1[131I] is reported as 0.74 ± 0.2 %ID/g (SCID mouse, PC-3 xenografts, heart; 1 h).
Under concentration, COC(=O)C[C@](O)(CCCC(C)(C)OC(C)=O)C(=O)O[C@@H]1C(OC)=C[C@]23CCCN2CCc2cc4c(cc2[C@H]13)OCO4 is recorded as “not detected” (CD1 mouse, plasma; oral, 1 mg/kg, 24 h).
Under “serum direct bilirubin”, CN(C)C(CNC(=O)Nc1cc(C(F)(F)F)ccc1N1CCOCC1)c1ccncc1 (stereo not drawn) is recorded as 0 mg/dL (mouse, serum; intraperitoneal, 120 mg/kg single dose).

Excerpt of the above:
With CC[C@H](C)[C@H](NC(=O)CNC(=O)[C@H](Cc1c[nH]cn1)NC(=O)[C@H](CC(C)C)NC(=O)CNC(=O)[C@H](CC(C)C)NC(=O)[C@H](CCCCN)NC(=O)[C@H](Cc1ccccc1)NC(=O)[C@H](CC(C)C)NC(=O)[C@H](CCCCN)NC(=O)CNC(=O)[C@H](Cc1c[nH]c2ccccc12)NC(=O)[C@H](Cc1ccccc1)NC(=O)CN)C(=O)NCC(=O)N[C@@H](CC(C)C)C(=O)N[C@@H](CC(C)C)C(=O)N[C@@H](Cc1c[nH]cn1)C(=O)N[C@@H](CC(C)C)C(=O)N[C@@H](Cc1c[nH]cn1)C(=O)N[C@@H](CC(C)C)C(N)=O the lethal concentration was 1 µM (mortality; zebrafish embryos, 4 hpf).
CCNc1cc2[o+]c3cc(NCC)c(C)cc3c(-c3ccccc3C(=O)OCCOCC[18F])c2cc1C: “tissue uptake ratio” 13.4 and 16.1 (rat; 120 min; relative to: heart over liver).
CC[C@H](C)C(=O)N1CCC(NC(=O)Nc2ccc(OC(F)(F)F)c(F)c2)CC1: “subjects with headache TEAE” 16.7% (healthy volunteers; oral, 2 mg single dose).
The terminal half-life of CC(C)C[C@@H](NC(=O)[C@@H](Cc1ccccc1)NC(=O)[C@H](N)Cc1ccccc1)C(=O)N[C@H](CCCCN)C(=O)N1CCC(N)(C(=O)O)CC1 is reported as 2 h (human, plasma; intravenous, 5 and 15 µg/kg).
